Measured values collected from several papers.
Every numbered part comes from another study and shows a few of its results, in no order.
UniProt Q16832, sequence (whole entry, looked up): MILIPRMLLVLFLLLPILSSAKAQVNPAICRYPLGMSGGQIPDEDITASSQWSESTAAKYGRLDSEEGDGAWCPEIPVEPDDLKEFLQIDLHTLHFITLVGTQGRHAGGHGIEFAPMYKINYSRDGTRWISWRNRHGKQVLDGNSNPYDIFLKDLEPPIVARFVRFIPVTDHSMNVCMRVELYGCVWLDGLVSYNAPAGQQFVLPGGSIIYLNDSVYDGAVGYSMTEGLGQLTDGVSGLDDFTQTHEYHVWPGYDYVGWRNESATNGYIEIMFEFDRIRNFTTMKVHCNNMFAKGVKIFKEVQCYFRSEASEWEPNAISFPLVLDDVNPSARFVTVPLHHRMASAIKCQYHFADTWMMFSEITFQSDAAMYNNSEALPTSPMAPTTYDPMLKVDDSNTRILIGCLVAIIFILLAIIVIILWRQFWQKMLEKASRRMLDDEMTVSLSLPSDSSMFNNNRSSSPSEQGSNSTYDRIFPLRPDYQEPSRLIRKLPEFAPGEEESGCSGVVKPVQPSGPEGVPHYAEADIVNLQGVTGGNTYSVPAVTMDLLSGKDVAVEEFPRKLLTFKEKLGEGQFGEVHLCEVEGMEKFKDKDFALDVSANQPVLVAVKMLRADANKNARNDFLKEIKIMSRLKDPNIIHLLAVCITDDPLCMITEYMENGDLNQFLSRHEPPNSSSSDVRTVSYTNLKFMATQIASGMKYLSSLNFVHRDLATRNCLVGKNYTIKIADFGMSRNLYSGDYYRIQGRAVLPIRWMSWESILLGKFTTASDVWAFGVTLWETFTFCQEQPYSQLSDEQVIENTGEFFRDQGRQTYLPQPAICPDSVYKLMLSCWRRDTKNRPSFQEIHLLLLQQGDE

Study 1 — observed: enzyme activity; action: inhibitor; concentration: 0.5 µM; baseline: control
Target: Serine/threonine-protein kinase VRK1 (VRK1, Homo sapiens, UniProt Q99986)
Construct (Q99986 1-396): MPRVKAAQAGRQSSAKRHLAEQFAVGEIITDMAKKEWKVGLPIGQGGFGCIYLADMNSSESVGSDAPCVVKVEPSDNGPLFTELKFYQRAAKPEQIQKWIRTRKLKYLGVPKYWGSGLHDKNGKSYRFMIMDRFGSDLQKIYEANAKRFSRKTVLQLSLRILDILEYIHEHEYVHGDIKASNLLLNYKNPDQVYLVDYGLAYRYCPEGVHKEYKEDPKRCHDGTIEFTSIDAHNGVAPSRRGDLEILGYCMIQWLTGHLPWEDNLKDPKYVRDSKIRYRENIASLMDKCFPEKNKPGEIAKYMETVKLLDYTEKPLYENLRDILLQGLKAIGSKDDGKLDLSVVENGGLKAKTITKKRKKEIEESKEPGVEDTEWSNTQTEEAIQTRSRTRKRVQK
| Structure (SMILES) | remaining activity |
| --- | --- |
| NC(=O)c1cccc(-c2cc(Nc3ccc(OC(F)(F)F)cc3)ncn2)c1 | 97.9% |
| Clc1ccc(Nc2nnc(Cc3ccncc3)c3ccccc23)cc1 | 109% |
| Nc1nc(Nc2ccc(S(N)(=O)=O)cc2)nn1C(=S)Nc1c(F)cccc1F | 94.6% |
| CNc1cc2c(Nc3cccc(Br)c3)ncnc2cn1 | 90.2% |
| CCN(CC)CCCCN1c2ccccc2Oc2ccc(Cl)cc21 | 101% |
| CCCCc1c(-c2ccc(O)cc2)[nH]c2nccnc12 | 87.9% |
| O=C(c1ccccc1)c1ccc(N2CCOCC2)cc1O | 89.7% |
| O=Nc1c(-c2c(O)[nH]c3ccccc23)[nH]c2ccccc12 | 86.3% |
| COc1cc2c(N3CCN(C(=O)Nc4ccc(OC(C)C)cc4)CC3)ncnc2cc1OCCCN1CCCCC1 | 100% |
| N#CC(c1ccnc(NCCc2cccnc2)n1)c1nc2ccccc2s1 (stereo not shown) | 94.1% |
| CC(C)n1cnc2c(Nc3cccc(Cl)c3)nc(NCCO)nc21 | 96.3% |
| FC(F)(F)c1ccc(/C=C/c2nc(COc3ccc(CCCCn4ccnn4)cc3)co2)cc1 | 99.8% |

Study 2 — observed: AlphaScreen signal; method: AlphaScreen counter screen; sample: His6 peptide without bromodomain; concentration: 50 µM; setting: assay interference check
| SMILES | inhibition |
| --- | --- |
| N#CC(=Cc1cccc(F)c1)c1nc2ccccc2s1 | 7.9% |
| COc1ccc(Nc2ncc(F)c(Nc3ccc(OC)c(Cl)c3)n2)cc1Cl | 16.6% |
| Cc1ccc(NC(=O)c2ccc(CN3CC[C@H](N(C)C)C3)c(C(F)(F)F)c2)cc1Nc1nccc(-c2cncnc2)n1 | 48.9% |
| O=C1Cc2c([nH]c3ccc([N+](=O)[O-])cc23)-c2ccccc2N1 | 11.8% |
| Cc1cc(Nc2nc(N[C@@H](C)c3ncc(F)cn3)ncc2Cl)n[nH]1 | 6.4% |
| O=S(=O)(NCCNCC=Cc1ccc(Br)cc1)c1cccc2cnccc12 | 16.4% |
| Cn1cc(C=C(C#N)c2nc3ccccc3s2)cn1 | 11.8% |
| O=C1NC(=O)C(c2c[nH]c3ccccc23)=C1c1c[nH]c2ccccc12 | 78.7% |
| Cc1cc(NC(=O)c2sc(Nc3ccccc3)nc2N)no1 | 25% |
| N#Cc1ccc(C(=O)Nc2cc(N3CCCCC3)ccc2N2CCCCC2)o1 | 59.3% |
| CCCCCCOC(=O)[C@]1(O)C[C@@H]2O[C@@]1(C)n1c3ccccc3c3c4c(c5c6ccccc6n2c5c31)C(=O)NC4 | 21.2% |
| CC(C)Oc1cc(Nc2nc(N[C@@H](C)c3ccc(F)cn3)ncc2Cl)[nH]n1 | 19.9% |

Study 3 — method: KINOMEscan; concentration: 10 µM; baseline: DMSO control; direction: lower = stronger binding
Structure (SMILES): COc1cc(C(=O)N2CCC(N3CCN(C)CC3)CC2)ccc1Nc1ncc2c(n1)N(C)c1ccccc1C(=O)N2C
| target | binding [%] |
| --- | --- |
| SIK2 | 98 |
| NLK | 50 |
| PCTK2 | 83 |
| MAP4K5 | 100 |
| GRK1 | 91 |
| PAK3 | 83 |
| CDKL5 | 100 |
| CSNK1D | 81 |
| TAOK2 | 65 |
| CDK7 | 86 |
| ULK2 | 67 |
| ROCK1 | 100 |

Single results of other studies
| SMILES | target | assay | endpoint | result |
| --- | --- | --- | --- | --- |
| Cc1cc(C)c(-n2ccn3nc(-c4cccnc4)cc23)cc1NC(=O)c1cc(C#N)cc(S(F)(F)(F)(F)F)c1 | Discoidin domain-containing receptor 2 (DDR2, Homo sapiens, UniProt Q16832) | target engagement in cells, BRET | IC50 | 4.5 nM |

Repeated from above (study 3):
| target | binding [%] |
| --- | --- |
| CDKL5 | 100 |
| CDK7 | 86 |
| MAP4K5 | 100 |
| TAOK2 | 65 |
